Results of several laboratories.
Several values in a cell are separate wells, animals, samples, runs or records. ± gives the spread as reported.
NNMT SAM-bound: Nicotinamide N-methyltransferase, SAM-bound (NNMT, Homo sapiens, UniProt P40261)
Chain of UniProt P40261 (whole entry, looked up): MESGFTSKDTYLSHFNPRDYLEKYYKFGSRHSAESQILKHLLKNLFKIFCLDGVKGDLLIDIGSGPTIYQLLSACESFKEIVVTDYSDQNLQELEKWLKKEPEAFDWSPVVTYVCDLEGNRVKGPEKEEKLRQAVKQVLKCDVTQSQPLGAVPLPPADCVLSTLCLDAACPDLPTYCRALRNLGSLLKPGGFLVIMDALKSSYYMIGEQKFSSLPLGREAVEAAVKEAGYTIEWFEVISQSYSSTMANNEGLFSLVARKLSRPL
Chain of UniProt Q9SZU7 (whole entry, unmodified, looked up): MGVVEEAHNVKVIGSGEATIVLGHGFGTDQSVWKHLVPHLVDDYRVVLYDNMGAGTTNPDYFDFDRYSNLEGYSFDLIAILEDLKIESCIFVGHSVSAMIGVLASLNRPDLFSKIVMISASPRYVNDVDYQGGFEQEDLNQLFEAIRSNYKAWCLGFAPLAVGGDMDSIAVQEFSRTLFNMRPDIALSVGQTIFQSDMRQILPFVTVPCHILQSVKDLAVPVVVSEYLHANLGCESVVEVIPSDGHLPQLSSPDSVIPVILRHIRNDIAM
Chain of UniProt Q68D91 (whole entry, looked up): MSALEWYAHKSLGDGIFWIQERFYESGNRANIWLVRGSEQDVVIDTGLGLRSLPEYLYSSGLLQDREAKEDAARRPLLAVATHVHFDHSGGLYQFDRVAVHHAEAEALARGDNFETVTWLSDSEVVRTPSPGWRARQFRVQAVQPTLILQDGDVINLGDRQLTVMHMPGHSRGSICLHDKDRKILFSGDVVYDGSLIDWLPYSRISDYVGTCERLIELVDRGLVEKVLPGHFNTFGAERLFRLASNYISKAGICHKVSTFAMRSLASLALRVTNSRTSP
Chain of UniProt P23280 (whole entry, looked up): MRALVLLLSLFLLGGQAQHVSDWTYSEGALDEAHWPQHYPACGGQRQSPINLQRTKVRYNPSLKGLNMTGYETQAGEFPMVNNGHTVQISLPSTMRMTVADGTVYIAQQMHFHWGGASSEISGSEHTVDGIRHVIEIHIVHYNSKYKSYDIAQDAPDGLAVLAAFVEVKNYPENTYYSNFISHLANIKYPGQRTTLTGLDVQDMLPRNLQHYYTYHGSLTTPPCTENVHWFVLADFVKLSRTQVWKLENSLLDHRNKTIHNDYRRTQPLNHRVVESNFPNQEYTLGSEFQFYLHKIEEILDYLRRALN
Chain of UniProt Q9UKP6 (whole entry, looked up): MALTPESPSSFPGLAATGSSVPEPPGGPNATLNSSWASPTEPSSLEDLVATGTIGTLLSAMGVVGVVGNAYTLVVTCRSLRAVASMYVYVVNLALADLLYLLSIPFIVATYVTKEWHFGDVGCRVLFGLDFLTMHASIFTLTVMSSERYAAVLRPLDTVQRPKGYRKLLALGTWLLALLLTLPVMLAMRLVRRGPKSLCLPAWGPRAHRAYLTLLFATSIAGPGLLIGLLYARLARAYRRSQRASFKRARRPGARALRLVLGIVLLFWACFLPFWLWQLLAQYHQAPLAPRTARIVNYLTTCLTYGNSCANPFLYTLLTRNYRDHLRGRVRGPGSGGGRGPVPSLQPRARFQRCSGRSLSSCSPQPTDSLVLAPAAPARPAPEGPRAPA
Chain of UniProt P54756 (whole entry, looked up): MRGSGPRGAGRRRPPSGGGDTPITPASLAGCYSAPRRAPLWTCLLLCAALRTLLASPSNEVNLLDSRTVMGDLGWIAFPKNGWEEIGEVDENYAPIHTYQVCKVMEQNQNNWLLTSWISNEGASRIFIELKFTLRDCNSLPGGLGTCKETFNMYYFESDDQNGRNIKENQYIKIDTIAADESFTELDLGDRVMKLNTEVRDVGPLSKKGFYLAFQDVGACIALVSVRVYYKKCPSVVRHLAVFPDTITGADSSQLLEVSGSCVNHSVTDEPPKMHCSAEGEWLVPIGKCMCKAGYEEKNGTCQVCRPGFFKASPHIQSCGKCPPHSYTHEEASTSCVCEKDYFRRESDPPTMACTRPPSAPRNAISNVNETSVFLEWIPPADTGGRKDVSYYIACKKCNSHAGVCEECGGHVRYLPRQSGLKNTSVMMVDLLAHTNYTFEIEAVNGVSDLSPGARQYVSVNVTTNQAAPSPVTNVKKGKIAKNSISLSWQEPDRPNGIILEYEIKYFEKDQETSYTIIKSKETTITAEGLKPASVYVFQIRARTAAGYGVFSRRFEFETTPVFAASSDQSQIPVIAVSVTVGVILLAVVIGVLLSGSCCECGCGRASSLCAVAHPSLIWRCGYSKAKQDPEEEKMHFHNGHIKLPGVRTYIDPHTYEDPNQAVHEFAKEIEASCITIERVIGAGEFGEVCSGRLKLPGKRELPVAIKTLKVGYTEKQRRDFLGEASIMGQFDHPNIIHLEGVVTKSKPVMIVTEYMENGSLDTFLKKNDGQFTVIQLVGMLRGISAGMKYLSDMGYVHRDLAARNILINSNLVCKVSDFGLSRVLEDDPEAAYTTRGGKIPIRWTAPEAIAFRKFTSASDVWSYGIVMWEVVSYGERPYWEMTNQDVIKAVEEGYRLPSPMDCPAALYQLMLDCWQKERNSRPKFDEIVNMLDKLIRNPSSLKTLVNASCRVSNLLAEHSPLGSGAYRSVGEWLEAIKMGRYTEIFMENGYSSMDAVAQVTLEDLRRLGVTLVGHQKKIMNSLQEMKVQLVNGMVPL
Chain of UniProt P0C264 (whole entry, looked up): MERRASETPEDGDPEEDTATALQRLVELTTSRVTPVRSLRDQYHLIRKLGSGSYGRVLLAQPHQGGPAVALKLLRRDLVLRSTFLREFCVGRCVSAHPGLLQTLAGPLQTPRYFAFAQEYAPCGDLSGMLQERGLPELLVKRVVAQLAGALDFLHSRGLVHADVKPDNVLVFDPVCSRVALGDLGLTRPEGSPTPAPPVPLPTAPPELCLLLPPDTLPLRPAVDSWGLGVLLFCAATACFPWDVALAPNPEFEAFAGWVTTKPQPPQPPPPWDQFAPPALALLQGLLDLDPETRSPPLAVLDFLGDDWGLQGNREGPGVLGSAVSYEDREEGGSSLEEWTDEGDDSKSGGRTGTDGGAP
Chain of UniProt P06802 (whole entry, looked up): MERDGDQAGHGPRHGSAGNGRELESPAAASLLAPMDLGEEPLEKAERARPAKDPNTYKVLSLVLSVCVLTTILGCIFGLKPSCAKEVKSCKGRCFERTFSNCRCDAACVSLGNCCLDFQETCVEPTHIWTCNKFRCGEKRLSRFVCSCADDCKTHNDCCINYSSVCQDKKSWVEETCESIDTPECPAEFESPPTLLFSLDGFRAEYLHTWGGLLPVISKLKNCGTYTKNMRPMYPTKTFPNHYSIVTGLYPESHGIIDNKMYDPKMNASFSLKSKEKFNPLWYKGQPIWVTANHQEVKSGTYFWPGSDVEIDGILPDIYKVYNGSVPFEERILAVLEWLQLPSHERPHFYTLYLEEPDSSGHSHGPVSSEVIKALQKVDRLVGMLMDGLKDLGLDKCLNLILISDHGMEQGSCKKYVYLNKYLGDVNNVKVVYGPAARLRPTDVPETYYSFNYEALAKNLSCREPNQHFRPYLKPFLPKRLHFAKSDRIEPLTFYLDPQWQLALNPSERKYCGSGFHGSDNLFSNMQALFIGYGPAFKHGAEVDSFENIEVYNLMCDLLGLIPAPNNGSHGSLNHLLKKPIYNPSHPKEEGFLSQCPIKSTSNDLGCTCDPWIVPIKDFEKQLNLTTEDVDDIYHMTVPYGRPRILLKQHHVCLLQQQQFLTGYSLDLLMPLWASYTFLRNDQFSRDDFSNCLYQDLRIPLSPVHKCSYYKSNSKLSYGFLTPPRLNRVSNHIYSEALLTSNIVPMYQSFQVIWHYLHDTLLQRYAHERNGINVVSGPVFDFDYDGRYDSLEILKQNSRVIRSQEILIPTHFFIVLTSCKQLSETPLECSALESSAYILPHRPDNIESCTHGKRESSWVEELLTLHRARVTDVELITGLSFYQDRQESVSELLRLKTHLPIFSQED

For `C=CC(=O)Nc1cccc(Cn2ncc3cnc(Nc4cnn(CCOC)c4)nc32)c1`, “percent of control” read 100% (MST4 human; binding, KINOMEscan; 100 nM; lower = stronger binding).
The Kd of `O=C(NO)c1cnc(NC2(c3cccc(F)c3)CCCCC2)nc1` is reported as 739 nM (MBLAC2 (Homo sapiens, UniProt Q68D91); inhibitor, competition pulldown; SW620 and MV4-11 lysate; 1 h).
`C=CC(=O)N1C[C@H](C)N(c2nc(OC[C@@]34CCCN3C[C@H](F)C4)nc3c(F)c(-c4ccc(F)c5sc(N)c(C#N)c45)c(C(F)(F)F)cc23)C[C@H]1C` has a Kd of 7200 nM and 7250 nM (GTPase KRas, GppNHp-bound (KRAS, Homo sapiens, UniProt P01116, G12D)).
`CC(=O)N[C@H]1[C@@H](OC(=O)NCCOCCOCCOCCOCCOCCNC(=O)O[C@H]2O[C@H](CO)[C@@H](O)[C@H](O)[C@H]2NC(C)=O)O[C@H](CO)[C@@H](O)[C@@H]1O` gave a Kd of 208 ± 18 nM (wheat germ agglutinin; ITC; pH 7.0, 298 K).
`CC(C)[C@H](NC(=O)[C@@H]1CSSC(C)(C)[C@H](NC(=O)[C@@H](N)CC(=O)O)C(=O)N[C@@H](Cc2ccccc2)C(=O)N[C@H](Cc2c[nH]c3ccccc23)C(=O)N[C@@H](CCCN)C(=O)N[C@@H](Cc2ccc(O)cc2)C(=O)N1)C(=O)O` has an EC50 of 0.8 nM (UTS2R (Homo sapiens, UniProt Q9UKP6); inositol phosphate, agonist, TR-FRET).
`CCOC1c2cc3c(cc2-c2c1c(COC)cc1cc(OC)c(OC)cc21)OCO3` (racemic) has a Kd of 512 nM (Hypoxia-inducible factor 1-alpha, part: C-terminal residues 575–826 (HIF1A, Homo sapiens, UniProt Q16665); binding).
The Kd of `Cn1ncc2cc(-c3cncc(Cl)c3N3CCC4(CCNC4=O)CC3)ccc21` is reported as 5280 nM (NUDT1 (Homo sapiens, UniProt P36639); cell-free assay; lysate).
The Kd of `CCc1nc2cc3ccccc3cc2cc1C(=O)N1CCC[C@H]1C(=O)N[C@@H](C/C=C\C[C@H](NC(=O)[C@@H]1CCCN1C(=O)c1cc2cc3ccccc3cc2nc1CC)C(=O)N[C@@H](CCCCN)C(=O)NCCCN)C(=O)N[C@@H](CCCCN)C(=O)NCCCN` is reported as 1340 nM (HIV-1 frameshift site RNA; SPR).
`CCCC[C@@H]1NC(=O)[C@H](Cc2ccc(O)cc2)NC(=O)[C@@H]2CCCN2C(=O)[C@H](CC(=O)O)NC(=O)[C@H](C)NC(=O)[C@H](Cc2ccccc2)NC(=O)[C@@H]2CSCCC(=O)N3CN(CN(C3)C(=O)CCSC[C@@H](C(=O)N[C@@H](C)C(N)=O)NC1=O)C(=O)CCSC[C@H](NC(C)=O)C(=O)N[C@@H](CC(C)(C)C)C(=O)N1CCC[C@H]1C(=O)N[C@@H](CCC(=O)O)C(=O)N[C@H](CCCCNC(=O)CCc1cn(CCOCCOCCOCCN(CCOCCOCCOCCC(=O)N[C@H]3CSCCC(=O)N4CN5CN(C4)C(=O)CCSC[C@H](NC(=O)[C@@H](CC(=O)O)NC(=O)[C@H](Cc4cccc6ccccc46)NC(=O)[C@@H]4CCCN4C3=O)C(=O)N[C@@H](CCSC)C(=O)N[C@@H](CCCCNC(=N)N)C(=O)N[C@@H](CC(=O)O)C(=O)N[C@@H](Cc3c[nH]c4ccccc34)C(=O)N[C@@H](CO)C(=O)N[C@@H]([C@@H](C)O)C(=O)N3CCC[C@H]3C(=O)N3C[C@H](O)C[C@H]3C(=O)N[C@@H](Cc3c[nH]c4ccccc34)C(=O)N[C@H](C(N)=O)CSCCC5=O)CCOCCOCCOCCn3cc(CCC(=O)NCCCC[C@H]4NC(=O)[C@H](CCC(=O)O)NC(=O)[C@@H]5CCCN5C(=O)[C@H](CC(C)(C)C)NC(=O)[C@@H](NC(C)=O)CSCCC(=O)N5CN6CN(C5)C(=O)CCSC[C@H](NC(=O)[C@H](Cc5ccc(O)cc5)NC(=O)[C@@H]5CCCN5C4=O)C(=O)N[C@@H](Cc4ccccc4)C(=O)N[C@@H](C)C(=O)N[C@@H](CC(=O)O)C(=O)N4CCC[C@H]4C(=O)N[C@@H](Cc4ccc(O)cc4)C(=O)N[C@@H](CCCC)C(=O)N[C@H](C(=O)N[C@@H](C)C(N)=O)CSCCC6=O)nn3)nn1)C(=O)N1CCC[C@H]1C(=O)N[C@@H](Cc1ccc(O)cc1)C(=O)N2` has a Kd of greater than 200 nM (Nectin-1 (NECTIN1, Homo sapiens, UniProt Q15223); SPR).
For `Cc1ccc(C(N)=O)cn1`, the Kd was 3980 nM (NNMT SAM-bound; substrate, SPR; 20 °C, together with: SAM).
`CCc1nc2cc3ccccc3cc2cc1C(=O)N[C@@H](CCCCN)C(=O)N[C@@H](C/C=C/C[C@H](NC(=O)[C@H](CCCCN)NC(=O)c1cc2cc3ccccc3cc2nc1CC)C(=O)N1CCC[C@H]1C(=O)NCCCN)C(=O)N1CCC[C@H]1C(=O)NCCCN` has a Kd of 53.9 nM (HIV-1 frameshift site RNA; SPR).
For `NS(=O)(=O)c1cc(C(=O)NCCCC(=O)O)c(NC2CCCCC2)cc1Cl`, the Kd was 110000 nM (CA6 (Homo sapiens, UniProt P23280); pH 7).
With `NCCCC[C@H](NC(=O)[C@H](C/C=C/C[C@H](NC(=O)[C@@H]1CCCN1)C(=O)N[C@@H](CCCCN)C(=O)NCCCN)NC(=O)[C@@H]1CCCN1)C(=O)NCCCN` the Kd was 303 nM (HIV-1 frameshift site RNA; SPR).
For `Nc1ncc(-c2cc(-c3cnn(CC(F)(F)F)c3)ncc2F)nc1C(=O)NC1CNCC(F)C1` (stereo not shown), the remaining binding was 71% (PIK3C2B; KINOMEscan; 1 µM; baseline: DMSO control).
`CNc1cc(CF)c(C(N)=O)cn1` gave a Kd of 5010 nM (NNMT SAM-bound; substrate, SPR; 20 °C, together with: SAM).
With `C=C(NC(=O)c1csc(-c2nc3c(cc2O)-c2nc(cs2)C(=O)NC(C(C)O)C(=O)NC(=C(C)OC)c2nc(cs2)C(=O)NC2c4nc(cs4)C(=O)NC(COC(=O)c4c5c6c(cccc6n4O)COC(=O)C(OC4CC(C)(O)C(N(C)C)C(C)O4)C2OC5)c2nc-3cs2)n1)C(N)=O` (stereo not shown) the AUC(0-tau) was 12800 ± 3610 ng·h/mL (cynomolgus monkey, both sexes, plasma; intravenous infusion, 1.5 mg/kg twice daily, 6 to 12 h after second dose).
The Kd of `CCc1nc2cc3ccccc3cc2cc1C(=O)N1CCC[C@H]1C(=O)N[C@@H](CCC/C=C/CCC[C@H](NC(=O)[C@@H]1CCCN1C(=O)c1cc2cc3ccccc3cc2nc1CC)C(=O)N[C@@H](CCCCN)C(=O)NCCCN)C(=O)N[C@@H](CCCCN)C(=O)NCCCN` is reported as 2620 nM (HIV-1 frameshift site RNA; SPR).
`COc1cccc2c(N3CCC(CCP(=O)(O)O)CC3)ncnc12` has a Kd of 0.254 nM (Enpp1 (Mus musculus, UniProt P06802); binding, SPR).
`CCc1cc(NC)ncc1C(N)=O` gave a Kd of 50100 nM (NNMT SAM-bound; substrate, SPR; 20 °C, together with: SAM).
For `CC[C@H](C)[C@@H]1NC(=O)[C@@H](NC(=O)[C@H](C)N)CSCCC(=O)N2CN3CN(C2)C(=O)CCSC[C@H](NC(=O)[C@H](Cc2ccc(O)cc2)NC(=O)[C@H](CCC(N)=O)NC(=O)CNC(=O)[C@H](CCC(=O)O)NC(=O)[C@H](CCC(=O)O)NC1=O)C(=O)N[C@@H](Cc1ccccc1)C(=O)N[C@@H](C)C(=O)N[C@@H](CC(=O)O)C(=O)N1CCC[C@H]1C(=O)N[C@@H](Cc1ccc(O)cc1)C(=O)N[C@@H](CCSC)C(=O)N[C@H](C(=O)N[C@@H](C)C(N)=O)CSCCC3=O`, the Kd was 40.6 nM (Tumor necrosis factor receptor superfamily member 9 (Homo sapiens, UniProt Q07011); binding, SPR).
`CNS(=O)(=O)Nc1nccc(Cc2c(C)c3ccc(Oc4ncccc4F)cc3oc2=O)c1F` gave an IC50 of 268 nM (NCI-H1869; cell viability, CellTiter-Glo; 7 days).
For `Cc1ncsc1-c1ccc(C(C)NC(=O)C2CC(O)CN2C(=O)C(NC(=O)CCCCCCCCCCN2CCCC(Nc3ncc(Cl)c(Nc4ccccc4S(=O)(=O)C(C)C)n3)C2)C(C)(C)C)cc1` (stereo not shown), “log2 fold change” read -1.91 (22Rv1; RNA-seq, item: ULBP1 mRNA; concentration not given; baseline: DMSO).
`NC(N)=NN=Cc1cccc(C=NN=C(N)N)c1` has a Kd of 8300 ± 800 nM (VPS26A/VPS35/VPS29 (Homo sapiens, UniProt O75436+Q96QK1+Q9UBQ0); binding).
`COC1CN([C@H]2CC[C@H]([C@@]3(C)Oc4c(Cl)cc(C(=O)NCc5c(SC)cc(C)[nH]c5=O)c(C)c4O3)CC2)C1`: “log2 fold change” 1.61 (RNA-seq, item: TMEM86B mouse homolog; mouse, HT-1376 xenograft, whole blood; dose not given; baseline: vehicle).
`CN1CCCNC(=O)c2cccc(c2)C(=O)NCCCN(C)CCCNc2cccc3c2C(=O)c2cccc(c2C3=O)NCCC1`: “log2 fold change” 1.24 (SAS; RNA-Seq, item: BCDIN3D mRNA; 1 µM, 6 h; baseline: untreated cells).
For `Cc1nn(-c2cccc(N)c2)c(=O)c2cnc(Nc3ccc(N4CCNCC4)cc3)nc12`, the IC50 was greater than 10000 nM (EPHA5 (Homo sapiens, UniProt P54756); enzyme activity, inhibitor).
For `Cc1cccc2c1N(C(=O)n1ccnn1)CC2`, the Kd was 10800 nM and 12500 nM and 9350 nM (KAI2 (Arabidopsis thaliana, UniProt Q9SZU7, L218A); ITC; L218A mutant).
`Cc1c[nH]c2nccc(-c3ccc(C(=O)N[C@@H]4c5c(F)cc(C(F)F)cc5C[C@@H]4O)cn3)c12` has a Kd of 1650 nM (SBK3 (Homo sapiens, UniProt P0C264); binding, competition with immobilised ligand).
